Published values collected from several papers.
A part holds a random share of what one study measured.

Set 1 — cell line: HEK-293T; organism: VSV pseudotyped with SARS-CoV-2 spike; concentration: 10 µM; time: 16 h; measurement: pseudovirus infection
Clc1ccc2c(c1)CCc1cccnc1C2=C1CCNCC1: 35.2%
CC1(C)C[C@@H]1C(=O)N/C(=C\CCCCSC[C@H](N)C(=O)O)C(=O)O: 86.8%
OCCOCCN1CCN(C2=Nc3ccccc3Sc3ccccc32)CC1: 123%

Set 2 — effect on: enzyme activity; action: inhibitor; concentration: 20 µM; measurement: inhibition
Target: Replicase polyprotein 1ab, main protease (rep, Severe acute respiratory syndrome coronavirus 2, UniProt P0DTD1)
C/N=c1/nc(-c2ccccc2)n(-c2ccccc2)s1: -11.6%
CCOc1ccc(Nc2nc(-c3c(C)nc4ccccn34)cs2)cc1: -23.7%
COc1ccc([N+](=O)[O-])c(S(=O)(=O)c2ccc(Cl)cc2)n1: -13.1%
Oc1cc2c(cc1C(c1ccc(C(F)(F)F)cc1)N1CCOCC1)OCO2 (centres unmarked): 98.7%

Set 3 — effect on: enzyme activity; action: inhibitor; concentration: 20 µM; measurement: inhibition
Target: Replicase polyprotein 1ab, polymerase (rep, Severe acute respiratory syndrome coronavirus 2, UniProt P0DTD1)
O=C1c2c(O)cc(O)cc2O[C@H](c2cc(O)c(O)c(O)c2)[C@H]1O: 13%
COC(=O)Nc1nc2cc(Sc3ccccc3)ccc2[nH]1: 24.2%
C[C@@H]1CC(=O)c2c(ccc3c2C(=O)c2cccc(O)c2C3=O)C1: 2.39%
C[C@H]1O[C@@H](O[C@H]2CC[C@@]3(C)[C@H](CC[C@@H]4[C@@H]3C[C@@H](O)[C@]3(C)[C@@H](C5=CC(=O)OC5)CC[C@]43O)C2)C[C@H](O)[C@@H]1O[C@H]1C[C@H](O)[C@H](O[C@H]2C[C@H](O)[C@H](O[C@@H]3O[C@H](CO)[C@@H](O)[C@H](O)[C@H]3O)[C@@H](C)O2)[C@@H](C)O1: -13.3%
CC[C@@H](NC(C)C)[C@@H](O)c1ccc(O)c2[nH]c(=O)ccc12: -3.32%
N#C[C@H](O[C@@H]1O[C@H](CO[C@@H]2O[C@H](CO)[C@@H](O)[C@H](O)[C@H]2O)[C@@H](O)[C@H](O)[C@H]1O)c1ccccc1: 3.51%
O=C1Nc2ccc(I)cc2/C1=C/c1cc(Br)c(O)c(Br)c1: 6.81%
O=C1N[C@@H]2[C@@H](O)[C@@H](O)[C@H](O)[C@@H](CO)N2C1=O: -3.4%
O=S1(=O)c2cccc3cccc(c23)N1CCCN1CCN(c2ccc(F)cc2)CC1: -1.95%
O=[N+]([O-])O[C@@H]1CO[C@H]2[C@@H]1OC[C@@H]2O: 6.74%
CC[C@H]1OC(=O)[C@H](C)[C@@H](O[C@H]2C[C@@](C)(OC)[C@@H](O)[C@H](C)O2)[C@H](C)[C@@H](O[C@@H]2O[C@H](C)C[C@H](N(C)C)[C@H]2O)[C@](C)(O)C[C@@H](C)CN(C)[C@H](C)[C@@H](O)[C@]1(C)O: 1.88%
C[C@@H](O[C@H]1OCCN(Cc2n[nH]c(=O)[nH]2)[C@H]1c1ccc(F)cc1)c1cc(C(F)(F)F)cc(C(F)(F)F)c1: 2.15%
CCCCOc1cc(C(=O)OCCN(CC)CC)ccc1N: -6.16%
CCOC1O[C@H]([C@@H](COCc2ccccc2)OCc2ccccc2)[C@H](OCc2ccccc2)[C@H]1O (some centres unmarked): -0.64%
COc1cc(N)cn[n+]1-c1ccccc1: 3.35%
Cn1c(NC[C@@H](N)Cc2ccccc2)nc(-c2ccncc2)c(-c2ccc3ccccc3c2)c1=O: 5.9%
Nc1nc(=O)n([C@H]2C[C@H](O)[C@@H](CO)O2)cc1F: -4.99%
O=c1c(O)c(-c2ccc(O)c(O)c2)oc2cc(O)cc(O)c12: 98%
CN(C)C(=O)c1cc2cnc(Nc3ccc(N4CCNCC4)cn3)nc2n1C1CCCC1: -4.55%
FC(F)(F)c1ccc(N2CCNCC2)nc1Cl: -4.92%
O=C1C2CC3CC1CC(O)(C3)C2: 0.92%
CCOc1ccc(Cc2cc([C@@H]3O[C@H](CO)[C@@H](O)[C@H](O)[C@H]3O)ccc2Cl)cc1: 4.9%
COP(=O)(OC)OC(c1ccc(Cl)cc1)P(=O)(OC)OC (centres unmarked): -11.5%
Cc1ccc(S(=O)(=O)N2CCC[C@H]2c2ccc(F)cc2)cc1: -6.06%
CC1(O)CCC(C(C)(C)O)CC1 (centres unmarked): 2.06%

Set 4 — method: protein-binding microarray; molecule type: double-stranded DNA, one strand shown; sample: in vitro; concentration: 2200 nM top; notes: 60-bp whole probe; with: salmon DNA 0.4 mg/ml; reference: random background probes; direction: higher = stronger binding; measurement: fitted relative affinity; constant ends, left off below: GCCTAGCAC … GTCTTGATTCGCTTGACGCTGCTG
Target: Interferon regulatory factor 7, full length, phosphomimetic (IRF7, Homo sapiens, UniProt Q92985, residues 1-503, S471D/S472D/S475D/S476D/S477D/S483D/S484D/S487D)
Residues (chain): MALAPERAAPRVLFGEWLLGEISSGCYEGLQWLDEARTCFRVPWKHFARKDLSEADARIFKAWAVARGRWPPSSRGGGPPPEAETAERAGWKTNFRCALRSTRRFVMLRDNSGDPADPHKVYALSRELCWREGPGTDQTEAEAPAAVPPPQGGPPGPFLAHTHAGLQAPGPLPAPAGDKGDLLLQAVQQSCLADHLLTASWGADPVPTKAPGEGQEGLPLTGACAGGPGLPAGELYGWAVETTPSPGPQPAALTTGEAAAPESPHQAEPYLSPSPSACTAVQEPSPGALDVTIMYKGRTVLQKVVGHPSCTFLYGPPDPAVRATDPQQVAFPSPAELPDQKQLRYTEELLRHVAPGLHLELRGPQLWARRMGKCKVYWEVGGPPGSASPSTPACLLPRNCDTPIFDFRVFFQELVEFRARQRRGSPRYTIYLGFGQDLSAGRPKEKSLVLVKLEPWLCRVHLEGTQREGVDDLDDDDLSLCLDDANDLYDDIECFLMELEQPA
TCAGCTTTGCCTTTTGCACTGTGCTAG: 1.01 z-score
CCCCTACTGTATTTGGCCAGGTGCTAG: 0.243 z-score
TTAGGTTTCGTTTCCGGTTAGTGCTAG: 10.6 z-score
GACGATATCCGACTGGAGACGTGCTAG: 0.125 z-score
GTAGGTTTCGACACTGGGTTAGTGCTA: 2.22 z-score
TCACATATATATATGAAACTGTGCTAG: 0.673 z-score
GACGGTCTCGGTGTCGGGACGTGCTAG: -0.507 z-score
TTAGGACTGCGTCTCCTTTAGTGCTAG: 0.334 z-score

Set 5 — method: competition protein-binding microarray; molecule type: double-stranded DNA, one strand shown; sample: in vitro; concentration: 2 µM; with: Cbf1 competitor, 0.05 µM; direction: higher = stronger binding; measurement: fluorescence intensity; constant ends, left off below: … GTCTTGATTCGCTTGACGCTGCTG
Target: Phosphate system positive regulatory protein PHO4, full length, GST-tagged (PHO4, Saccharomyces cerevisiae, UniProt P07270, residues 1-312)
Notes: whole 60-bp probe, lowest competitor level
Construct (chain): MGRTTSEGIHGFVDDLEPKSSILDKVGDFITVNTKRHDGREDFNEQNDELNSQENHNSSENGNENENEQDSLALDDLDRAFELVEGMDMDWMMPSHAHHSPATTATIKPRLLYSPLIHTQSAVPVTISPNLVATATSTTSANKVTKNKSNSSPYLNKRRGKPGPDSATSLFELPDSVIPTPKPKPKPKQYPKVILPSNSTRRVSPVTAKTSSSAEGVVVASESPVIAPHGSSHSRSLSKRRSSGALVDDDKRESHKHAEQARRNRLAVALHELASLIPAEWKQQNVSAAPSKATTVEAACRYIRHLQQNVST
TTGGTGTTTCTGCCTTACGTGGTGAGTTTAAGGACC: 4860 a.u.
ATATCGTCGAATTGTCATGTGATGAAGCCAATTTAT: 6090 a.u.
ATTCCACTAGGGCTGGTCGTGGGTAACTTGGGGAGC: 6490 a.u.
TGGGCTCACCCGCGGGTCGTGATGGCGATTCAGCAA: 4710 a.u.
CTTCTGTAAATTTGATGCGTGGGTGGACGCGCCCCG: 9440 a.u.
AAATCTTTGGTTGACAACATGATAACTGGTGTCCCC: 4220 a.u.
AAAGCGGTAATTTGCTGAGTGGGTGCAGATATCTAT: 4040 a.u.
TGCGCAACAACTTGCGTGGTGGGTGTATGTCTAGAA: 6680 a.u.

Set 6 — method: RNA Bind-n-Seq; molecule type: RNA; sample: in vitro; concentration: not given; reference: input RNA pool; direction: higher = stronger binding; measurement: bound/input enrichment
Target: RING finger protein unkempt homolog, zinc fingers 1-6, GST-SBP tag (UNK, Homo sapiens, UniProt Q9C0B0, residues 30-357)
Notes: RNA with constant flanks, human and mouse sites, ends assumed
Constant ends, left off below: GGGAGUUCUACAGUCCGACGAUC … CAACAGAGGAUUGAGCAUCA
Residues (chain): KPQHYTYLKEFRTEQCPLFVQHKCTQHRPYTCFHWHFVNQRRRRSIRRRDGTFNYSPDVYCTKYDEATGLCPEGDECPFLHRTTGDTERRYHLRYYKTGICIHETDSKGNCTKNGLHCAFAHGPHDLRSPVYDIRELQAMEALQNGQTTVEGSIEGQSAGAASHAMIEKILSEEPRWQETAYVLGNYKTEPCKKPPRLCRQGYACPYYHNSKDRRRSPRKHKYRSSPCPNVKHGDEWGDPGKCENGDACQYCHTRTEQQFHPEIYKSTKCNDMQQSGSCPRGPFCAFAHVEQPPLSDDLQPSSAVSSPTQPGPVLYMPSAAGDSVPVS
ACCAGAGAGAUGCCAUCACCAAAAUGAAAGAUGUGUACCUAAAGAACCCUCAGAUGGGAGACCCAGCCAGCCUGGACCAGAAGCUCACCGAAGUCACCCAGAACAUAGAGAAACUGCGGC: 0.202 ratio
AAUGAUGAUGCUAUGCUGAUCGAGAAGUUUGUAGACACACCGAGGCAUGUAGAAGUCCAGGUGUUUGGUGAUCACCAUGGCAAUGCUGUGUACUUGUUUGAAAGAGACUGUAGUGUGCAG: 0.672 ratio
GCAUCCCCAAAUAAUCCCCCCCCCUCUCUCUCUCUCACAUACACACACACACACACACACACACACACACACACACACGCACACACAAACACAUUCCUCUAGUGUCUUUUGCCUUUAAAA: 1.32 ratio
AAGCUUGGUGGGACAAUAGAUGACUGUGAGCUGGUGGAAGGCCUCGUUCUCACACAGAAAGUAGCAAAUUCUGGCAUAACAAGAGUUGAAAAGGCUAAGAUUGGGCUUAUUCAGUUUUGC: 0.471 ratio
UACUACUAUGAUGGUGAUAUUGGCAAUUAUUAUUAUGGCCAGGGUCAUCCCAUGAAGCCUCAUAGAAUCCGGAUGACUCAUAACUUGCUGCUAAAUUAUGGUUUAUACCGAAAAAUGGAA: 0.147 ratio
UACCAGCAGGCGUUGCUGCUGCUGGGGGCCACCGCCCUGGCCUGCCUGGCCCUAGAUCUCCUCUUCCUACUCUUCUAUUCCUUCUGGCUGUGCUGCCGGAGGAGAAAGACAGACGAGCAC: 0.0712 ratio
UACUGCUUUCAACUUAAAUCACUGAGGCAUUUUUACUACUAUUCUGUUAAAAUCAGGAUUUUAGUGCUUGCCACCACCAGAUGAGAAGUUAAGCAGCCUUUCUGUGGAGAGUGAGAAUAA: 0.136 ratio
ACUCACCCUGAGGAGUCUCCAGGGAUGGAGGUGGGGCAUGCGGCCACUGGUCGGUGCUGCCUGGUCCUGGCCUGGGGCAGAGCCUGUGUGUUCUUCACCUGUGCCUGCUCCUGGUGGUCU: 0.0735 ratio

Some of these lines once more (set 6):
UACCAGCAGGCGUUGCUGCUGCUGGGGGCCACCGCCCUGGCCUGCCUGGCCCUAGAUCUCCUCUUCCUACUCUUCUAUUCCUUCUGGCUGUGCUGCCGGAGGAGAAAGACAGACGAGCAC: 0.0712 ratio
GCAUCCCCAAAUAAUCCCCCCCCCUCUCUCUCUCUCACAUACACACACACACACACACACACACACACACACACACACGCACACACAAACACAUUCCUCUAGUGUCUUUUGCCUUUAAAA: 1.32 ratio
UACUACUAUGAUGGUGAUAUUGGCAAUUAUUAUUAUGGCCAGGGUCAUCCCAUGAAGCCUCAUAGAAUCCGGAUGACUCAUAACUUGCUGCUAAAUUAUGGUUUAUACCGAAAAAUGGAA: 0.147 ratio
AAUGAUGAUGCUAUGCUGAUCGAGAAGUUUGUAGACACACCGAGGCAUGUAGAAGUCCAGGUGUUUGGUGAUCACCAUGGCAAUGCUGUGUACUUGUUUGAAAGAGACUGUAGUGUGCAG: 0.672 ratio
AAGCUUGGUGGGACAAUAGAUGACUGUGAGCUGGUGGAAGGCCUCGUUCUCACACAGAAAGUAGCAAAUUCUGGCAUAACAAGAGUUGAAAAGGCUAAGAUUGGGCUUAUUCAGUUUUGC: 0.471 ratio
ACUCACCCUGAGGAGUCUCCAGGGAUGGAGGUGGGGCAUGCGGCCACUGGUCGGUGCUGCCUGGUCCUGGCCUGGGGCAGAGCCUGUGUGUUCUUCACCUGUGCCUGCUCCUGGUGGUCU: 0.0735 ratio
UACUGCUUUCAACUUAAAUCACUGAGGCAUUUUUACUACUAUUCUGUUAAAAUCAGGAUUUUAGUGCUUGCCACCACCAGAUGAGAAGUUAAGCAGCCUUUCUGUGGAGAGUGAGAAUAA: 0.136 ratio
ACCAGAGAGAUGCCAUCACCAAAAUGAAAGAUGUGUACCUAAAGAACCCUCAGAUGGGAGACCCAGCCAGCCUGGACCAGAAGCUCACCGAAGUCACCCAGAACAUAGAGAAACUGCGGC: 0.202 ratio
